Measured values collected from several papers.
Parts stem from different laboratories: compare values within a part only.

Study 1 — technique: RNA Bind-n-Seq; form: RNA; medium: in vitro; concentration: not given; relative to: input RNA pool; reading: higher = stronger binding
Target: RING finger protein unkempt homolog, zinc fingers 1-6, GST-SBP tag (UNK, Homo sapiens, UniProt Q9C0B0, residues 30-357)
Sequence of UniProt Q9C0B0 (30-357, looked up): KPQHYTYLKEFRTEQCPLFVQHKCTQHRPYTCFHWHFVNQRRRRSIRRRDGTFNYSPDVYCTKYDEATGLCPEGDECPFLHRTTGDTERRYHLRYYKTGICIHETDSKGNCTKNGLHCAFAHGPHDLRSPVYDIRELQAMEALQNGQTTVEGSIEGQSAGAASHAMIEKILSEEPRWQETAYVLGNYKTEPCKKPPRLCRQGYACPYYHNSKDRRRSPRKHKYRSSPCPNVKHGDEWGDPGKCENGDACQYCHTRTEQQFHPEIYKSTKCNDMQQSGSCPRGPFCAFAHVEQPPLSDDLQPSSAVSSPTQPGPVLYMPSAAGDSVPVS
Notes: RNA with constant flanks, human and mouse sites, ends assumed
`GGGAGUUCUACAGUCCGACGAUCAUCCAGUACUCCAAUCACAAAGAACUAAAGACAGAUAAUACAUUAAACCAACGUGCGCAAGUAGUUCUUCAAGCUGUGACAGCGGUCCAGACAGCAAAUACACCUCUUAGUGGCACCACACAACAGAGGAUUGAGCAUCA` gave a bound/input enrichment of 0.475 ratio.
`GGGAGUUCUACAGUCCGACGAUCGUGGAUGUUUUGAUUGACACAUGUCAAGGUGAUGACGCACUUCCAAAUGGGUUAGACGUUACCUUUGAAGUAACUGAAUUGAGGAGAUUAACGGGCAGUUAUAACACCAUGGUUGGAAACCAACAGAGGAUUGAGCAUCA` has a bound/input enrichment of 0.377 ratio.
With `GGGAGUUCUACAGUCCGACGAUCUUCUUCACCCGUAACCAUCUGCCUGUACCUAACCUGGACCCACACACCUAUCGCUUACAUGUAGUAGGGGCACCUGGAGGUCAGUCACUGUCUCUGUCCUUGGAUGAUUUGCAUAAGUUUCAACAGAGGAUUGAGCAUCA` the bound/input enrichment was 0.244 ratio.
`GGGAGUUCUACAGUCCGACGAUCCUAGAUGUUUCAUAUGAACCAAUGAUAGUGAAGGAAGCUCGAUAUAUUGCCAUAACAAUGAUGAAGGUUUAUGAAAAUUAUUCAUUUGAAGAACUACGUUUUGCAUCACCAACUCCUAAGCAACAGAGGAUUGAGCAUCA` has a bound/input enrichment of 0.377 ratio.
With `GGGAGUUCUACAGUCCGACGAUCGCCUGCAGUGGGACUGCUCCUUUGAUAUCUGAACCUCUGUUAUGGGCUUCUCUGAGACAAGUAAAUGUCAGGUGCAAGAUCUGGAUACUAACAGUUUCAGUUUGGGAAAUCCAAGAAAAACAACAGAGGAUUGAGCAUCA` the bound/input enrichment was 0.151 ratio.
For `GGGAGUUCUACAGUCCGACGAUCUCUCUAAAUCCUGAAUUUAACAAAGCAGUGAUCAGAGUGAAUGUAUUUCGAGAACACAGGCAGACUAUUCAGUAUAUACAUCCUGCAGAUGCUGUGAAGCUGGGCCAGGCUGAACUAGUUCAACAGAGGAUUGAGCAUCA`, the bound/input enrichment was 0.162 ratio.
`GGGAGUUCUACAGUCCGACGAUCAGUCUGGUGAAUGAGACCACUCUGAUCAAAUACUCCAGGCUGCCAACCAUAAACAAGCAUAGUUUCCGGUACUUUGUUUUGGAUAACAGUGUCAUCCUGGCAAUGCUGGAGCAACCGCUUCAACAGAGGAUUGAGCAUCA` gave a bound/input enrichment of 0.0333 ratio.
`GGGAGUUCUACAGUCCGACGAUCGUCAACUAUGAAGAAUUCGUACAGAUGAUGACUGCAAAAUGAAGACCUACUUUCAACUACUUUUCCCCCUCUAGAAGAAUCAAAUUGAAAUCUUUUACUUACCUCUUACAAAAAAAAGAACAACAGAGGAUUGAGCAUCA` gave a bound/input enrichment of 2.17 ratio.
`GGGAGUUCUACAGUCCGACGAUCCAGUUCCAAGAUCCAGACUUUGGUGGUCUGUCUGGUGGAAGGGUCGUUCGCAUUGCUGUUCACCCAGAUUAUCAAGGGAUGGGCUAUGGCAGCCGUGCUCUGCAGCUGCUGCAGAUGUACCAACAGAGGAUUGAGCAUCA` has a bound/input enrichment of 0.229 ratio.
The bound/input enrichment of `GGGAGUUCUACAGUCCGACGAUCAGACAAUUAAGAGAUGCUCAGCAGGAUGCAAGAGAUAAAAUGGAGGAUAUCGAACGCCAAGUUAGAGAAUUGAAAACAAAAAUUUCAGCUAUGAAAGAAGAAAAAGAACAGCUUAGUGCUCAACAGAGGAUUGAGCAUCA` is reported as 11.6 ratio.
`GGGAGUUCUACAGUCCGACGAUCAAGCAAUGUGGGAAAACUUUCAAUUGGCCCAUAUCUUUACGAAAACAUAUGAGAACACAUACUAGAGAGAAACCCUAUGAAUGUAAGCAGUGUGGGAAAGCCUUCAGCUUGUCUGCUUGCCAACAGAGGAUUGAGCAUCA` has a bound/input enrichment of 0.289 ratio.

Study 2 — technique: protein-binding microarray; form: double-stranded DNA, one strand shown; medium: in vitro; concentration: 0.8 µM; notes: whole 60-bp probe, no competitor; reading: higher = stronger binding
Target: Centromere-binding protein 1, full length, N-terminal tag (CBF1, Saccharomyces cerevisiae, UniProt P17106, residues 1-351)
Sequence of UniProt P17106 (whole entry, looked up): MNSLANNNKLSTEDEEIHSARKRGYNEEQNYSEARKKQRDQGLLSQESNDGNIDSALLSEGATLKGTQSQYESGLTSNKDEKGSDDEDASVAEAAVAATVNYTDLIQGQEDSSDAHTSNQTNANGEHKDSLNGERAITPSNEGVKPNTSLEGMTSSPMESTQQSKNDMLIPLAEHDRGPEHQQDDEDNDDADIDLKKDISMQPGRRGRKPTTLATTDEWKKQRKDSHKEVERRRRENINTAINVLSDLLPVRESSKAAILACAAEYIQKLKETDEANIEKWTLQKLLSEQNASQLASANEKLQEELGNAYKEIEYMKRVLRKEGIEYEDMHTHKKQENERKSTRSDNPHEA
`GAATTCTTATTATTCCATGTGTCTCGGGATACCTAGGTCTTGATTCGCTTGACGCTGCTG` has a fluorescence intensity of 557 a.u.
`GAATTTTTTGGATTTCAACTGATAGTTTTCGTATAGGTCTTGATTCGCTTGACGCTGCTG` has a fluorescence intensity of 518 a.u.
For `GAAAATAGAGAAAAGCACACGTTAATTATATCATAGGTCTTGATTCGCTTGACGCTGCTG`, the fluorescence intensity was 517 a.u.
`GAATCTTGTAGTTGCCACGTGAAACCTGACAACTAGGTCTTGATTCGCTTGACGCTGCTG` gave a fluorescence intensity of 3170 a.u.
With `TGTACGAAGCTATGACATGTGAGTATAGTAGTTAGGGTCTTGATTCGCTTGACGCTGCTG` the fluorescence intensity was 842 a.u.
The fluorescence intensity of `CTAATGAGATAGATACATGCGTGGGTCAATTGCTTCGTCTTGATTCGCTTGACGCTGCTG` is reported as 537 a.u.
With `CTATCTTCTATGTAGCATCAGAAAGAAACACCATTCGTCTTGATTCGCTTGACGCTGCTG` the fluorescence intensity was 588 a.u.
The fluorescence intensity of `CTAGAAAGAAAAAAACGCGTGGCGGGTAAAGAATTCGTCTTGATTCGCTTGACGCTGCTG` is reported as 520 a.u.
For `CTAACGATATTTCTGATCGTGATTAAACTGGTATTCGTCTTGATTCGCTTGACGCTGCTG`, the fluorescence intensity was 698 a.u.
`CTATTCCCAGCTTTTCACGTGCGAGGTGGACTATTCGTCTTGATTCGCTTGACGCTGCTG` gave a fluorescence intensity of 2540 a.u.
`TGTACGAAGCTATGTCACGTTCATATAGTAGTTAGGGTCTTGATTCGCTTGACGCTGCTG` has a fluorescence intensity of 1530 a.u.
The fluorescence intensity of `GAACTCAAGAGAAATTTCATGACACTTTTTTAATAGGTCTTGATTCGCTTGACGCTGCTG` is reported as 509 a.u.
`CTAGATTCAGGTGCTCATCAGATGCACCACATTTTCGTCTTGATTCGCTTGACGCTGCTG` has a fluorescence intensity of 615 a.u.
`CTAGGAGGATGCCCCCATGTGCTGATTCTCCCCTTCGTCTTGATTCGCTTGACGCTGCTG` gave a fluorescence intensity of 484 a.u.
With `CTATGCTCGTATTTTCACCTCACTTCTCTTTCTTTCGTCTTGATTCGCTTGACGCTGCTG` the fluorescence intensity was 522 a.u.
`TGTACGAAGCTATTTCACGTGTATATAGTAGTTAGGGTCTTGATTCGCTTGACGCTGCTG` has a fluorescence intensity of 2170 a.u.
With `CTATCGTTTGTAGCCGACGTGCTTCATTTATCATTCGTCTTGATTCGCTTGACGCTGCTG` the fluorescence intensity was 574 a.u.
`CTAACACTAACATGTGTCGTGACCAATGTGCAGTTCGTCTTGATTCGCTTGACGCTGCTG` gave a fluorescence intensity of 1730 a.u.
With `CTAAATGGTCATAAACATGTGGTGTGCAATGTGTTCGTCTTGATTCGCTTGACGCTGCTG` the fluorescence intensity was 785 a.u.
The fluorescence intensity of `GAAGCTTAAGGCCCCCACGAACAGTACGTGAGCTAGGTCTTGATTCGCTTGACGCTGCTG` is reported as 494 a.u.
The fluorescence intensity of `CTAGTCATAACGCGTGGTGTTGTGGTTTTGCTTTTCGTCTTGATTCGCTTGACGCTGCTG` is reported as 538 a.u.
`CCTAACTACTATACGCACGTGCCATAGCTTCGTACAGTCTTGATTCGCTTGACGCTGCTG` gave a fluorescence intensity of 11500 a.u.
With `GAACACAATATACGTGATTTTAGAATAGAGTATTAGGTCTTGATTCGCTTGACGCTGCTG` the fluorescence intensity was 613 a.u.
The fluorescence intensity of `GAATGTACCTAGCATCATGTATTTATTAAGTTTTAGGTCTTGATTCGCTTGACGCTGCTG` is reported as 506 a.u.
For `CTACTGTGGCCGTGTCAGGTCACGTGAAGAGAGTTCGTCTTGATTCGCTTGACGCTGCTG`, the fluorescence intensity was 22200 a.u.

Study 3 — technique: RNA Bind-n-Seq; form: RNA; medium: in vitro; concentration: 365 nM; relative to: no-protein control; reading: higher = stronger binding
Target: RNA binding protein fox-1 homolog 2, RRM domain, GST-SBP tag (RBFOX2, Homo sapiens, UniProt O43251-10, residues 100-194)
Notes: natural RNA segment, single round, ends assumed
Residues (chain): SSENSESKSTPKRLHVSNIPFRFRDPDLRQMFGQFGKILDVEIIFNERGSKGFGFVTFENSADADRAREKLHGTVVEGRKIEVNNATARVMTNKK
Under “RBNS enrichment (R)”, `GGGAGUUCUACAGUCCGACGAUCACUGCAUCCAGCCUGGGGCUGAGGCUGAGGCACUGGCGAGGAGAGGGCGCUCCUCUCUGCACACCUACUAGUCACCAGAGACUUUAGGGGGUGGGAUUCCACUCGUGUGUUGGAAUUCUCGGGUGCCAA` is recorded as 2.28.
Under “RBNS enrichment (R)”, `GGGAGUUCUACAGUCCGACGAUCUACCAGUGAGUGCCUUAAAGUUGGAGAAGUAACUGCCCAUGCCCAGAAAUAAGGAUGCCAGUGCCCAGAAGCAGUGAGAUUAGUCUGUGUCCACAAGCAGAGGCCCCCUCUGGAAUUCUCGGGUGCCAA` is recorded as 3.26.
Under “RBNS enrichment (R)”, `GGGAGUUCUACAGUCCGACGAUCUUUUAGGUUAUUAAGGUAACUGCUAAUGAAGGAUUUUAAAAAGUGUCCUCAAAAAGGACUUAGCCCCGGGAGUUGUUUAUAAAAUUUCCCCCACUUGUAUACAGUGUGCAUGGAAUUCUCGGGUGCCAA` is recorded as 4.47.
For `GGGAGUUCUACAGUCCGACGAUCUACUGGUCUUUGCUUUUAGUAAUAAAACAUCAAAUUAGGUUUGGAGGGAACUUUGAUCUUCCUAAGAAUUAAAGUUGCCAAAUUAUUCUGAUUGGUCUUUAAUCUCCUUUUGGAAUUCUCGGGUGCCAA`, “RBNS enrichment (R)” read 0.226.
Under “RBNS enrichment (R)”, `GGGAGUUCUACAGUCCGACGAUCGCCACACUGCUCAAAGGUCCCUGCGUGGGGAGGUGUCACACCAGGGGCACACCCAGGGCCACCUGGGUGUAGGAGAGCUCUGGUGGCCCCUCCGUAAACUCAGGAAGUGUUGGAAUUCUCGGGUGCCAA` is recorded as 0.469.
Under “RBNS enrichment (R)”, `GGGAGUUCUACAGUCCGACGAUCUUUCAGGAGAGCCUAUUGCCCUACGUGAGCAUUAGGUAAAACUCUUAAAUUUCUGUUUACAUUGAAAGCUGUUCAUUCAUGGCGCCCCCCCCCCCCCAAUCAUAAGACCAUGGAAUUCUCGGGUGCCAA` is recorded as 0.352.
Under “RBNS enrichment (R)”, `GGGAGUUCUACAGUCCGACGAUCACUUUUGUACUUUAUUACGAGUAAAGUGUAAUGAGUACUGUGGAAACCAAAUUUGAAUACUGCAAAUUUGUAGGAGUUACUAGGUUAGCAAUUAGUCCAUACAUCCAUAAUGGAAUUCUCGGGUGCCAA` is recorded as 0.826.
For `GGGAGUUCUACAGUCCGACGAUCUGAAUUUGAGCACAGUCCAGAAAUGGAGACAUCCCACCCCCAGUUGAAUAAUGGCCCAUUCAUGCCAACCUUGCCAACACGGAGAGGGCAGAGAUGCACUAGAAGACCUUUGGAAUUCUCGGGUGCCAA`, “RBNS enrichment (R)” read 0.366.
Under “RBNS enrichment (R)”, `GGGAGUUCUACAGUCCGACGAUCAUCUCUAGCAAGCCUGUUUCUUGUCAGGUAGCCCAGGAUGGCCUUGAACUCUUAAUCCUCCGCCUUGGCCCUCUAAGGGCUGCUAGUCCGAGUGUGGACAACCACACCUGUGGAAUUCUCGGGUGCCAA` is recorded as 0.319.

Study 4 — technique: universal PBM; form: double-stranded DNA, one strand shown; medium: in vitro; concentration: 600 nM; reading: higher = stronger binding
Target: Sal-like protein 4, full length isoform A (SALL4, Homo sapiens, UniProt Q9UJQ4, residues 1-1053)
Sequence of UniProt Q9UJQ4 (whole entry, looked up): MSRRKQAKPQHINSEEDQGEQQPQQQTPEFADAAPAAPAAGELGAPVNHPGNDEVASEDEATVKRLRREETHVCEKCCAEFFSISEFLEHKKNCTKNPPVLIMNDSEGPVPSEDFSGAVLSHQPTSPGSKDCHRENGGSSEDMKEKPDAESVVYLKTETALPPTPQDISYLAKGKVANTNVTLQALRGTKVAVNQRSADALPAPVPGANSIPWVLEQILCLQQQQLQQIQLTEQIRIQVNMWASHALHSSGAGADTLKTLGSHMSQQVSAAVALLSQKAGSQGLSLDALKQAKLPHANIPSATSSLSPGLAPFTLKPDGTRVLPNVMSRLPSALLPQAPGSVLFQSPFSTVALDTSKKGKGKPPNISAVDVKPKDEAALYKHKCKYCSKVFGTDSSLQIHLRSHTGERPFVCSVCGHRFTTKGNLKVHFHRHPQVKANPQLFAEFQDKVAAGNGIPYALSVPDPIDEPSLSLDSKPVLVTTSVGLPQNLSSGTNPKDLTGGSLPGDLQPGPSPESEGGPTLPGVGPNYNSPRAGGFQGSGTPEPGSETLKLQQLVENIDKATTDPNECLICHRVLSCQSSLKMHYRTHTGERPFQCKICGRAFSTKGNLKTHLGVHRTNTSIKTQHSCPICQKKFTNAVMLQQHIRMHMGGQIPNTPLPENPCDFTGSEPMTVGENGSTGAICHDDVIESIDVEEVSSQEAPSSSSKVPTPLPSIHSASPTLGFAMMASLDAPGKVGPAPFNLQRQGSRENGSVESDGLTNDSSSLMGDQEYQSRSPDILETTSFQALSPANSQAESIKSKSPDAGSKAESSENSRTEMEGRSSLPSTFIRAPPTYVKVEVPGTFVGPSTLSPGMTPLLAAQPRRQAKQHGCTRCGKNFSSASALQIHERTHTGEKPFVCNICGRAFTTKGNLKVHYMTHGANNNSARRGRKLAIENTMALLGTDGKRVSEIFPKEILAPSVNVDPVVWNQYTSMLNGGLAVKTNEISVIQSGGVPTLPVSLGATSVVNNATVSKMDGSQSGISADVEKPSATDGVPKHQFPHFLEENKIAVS
Notes: 8-mer, flanks averaged, mean of replicates
`TTAGCCAA` gave an E-score of 0.0512.
`AGCCTATA` gave an E-score of 0.197.
With `CCTCTCGA` the E-score was -0.227.
For `AAGAGAGC`, the E-score was -0.18.
With `ACGGGGAT` the E-score was -0.226.
For `CAGAGCTG`, the E-score was -0.236.
`CAACGGCC` has an E-score of -0.245.
`CCATCCAA` gave an E-score of 0.0747.
For `AGATGGGG`, the E-score was -0.232.
For `ATTGCAAA`, the E-score was 0.261.
The E-score of `GGACTACA` is reported as 0.0813.
`AGGTGGTG` gave an E-score of -0.103.
With `AACTTAAG` the E-score was 0.168.
For `ATCACACG`, the E-score was 0.208.
The E-score of `AATTAGAA` is reported as 0.207.
For `ATTCGGAA`, the E-score was 0.132.
For `CCTCCAAA`, the E-score was -0.079.
`AGGATACG` gave an E-score of -0.0877.
For `GTGGGAAA`, the E-score was 0.0289.
`ACCGCTTG` gave an E-score of -0.101.
For `AGACTTCC`, the E-score was -0.0596.
`TATGAAGA` has an E-score of 0.329.
